Assay results of several laboratories.
Each numbered part is a random draw from the data of one study; scales do not carry over between parts. Substitutions count along the parent as printed.

Study 1
Target: vanadate, free oxyanion
Method: microfluidic competitive inhibition
Medium: in vitro, cell-free expressed
Tested at: not given
Setting: derived from inhibition constants, unchanged parent 676 nM
Reading: lower = stronger binding
Starting sequence: PafA, mature enzyme, eGFP fusion (Elizabethkingia meningoseptica, UniProt Q9KJX5); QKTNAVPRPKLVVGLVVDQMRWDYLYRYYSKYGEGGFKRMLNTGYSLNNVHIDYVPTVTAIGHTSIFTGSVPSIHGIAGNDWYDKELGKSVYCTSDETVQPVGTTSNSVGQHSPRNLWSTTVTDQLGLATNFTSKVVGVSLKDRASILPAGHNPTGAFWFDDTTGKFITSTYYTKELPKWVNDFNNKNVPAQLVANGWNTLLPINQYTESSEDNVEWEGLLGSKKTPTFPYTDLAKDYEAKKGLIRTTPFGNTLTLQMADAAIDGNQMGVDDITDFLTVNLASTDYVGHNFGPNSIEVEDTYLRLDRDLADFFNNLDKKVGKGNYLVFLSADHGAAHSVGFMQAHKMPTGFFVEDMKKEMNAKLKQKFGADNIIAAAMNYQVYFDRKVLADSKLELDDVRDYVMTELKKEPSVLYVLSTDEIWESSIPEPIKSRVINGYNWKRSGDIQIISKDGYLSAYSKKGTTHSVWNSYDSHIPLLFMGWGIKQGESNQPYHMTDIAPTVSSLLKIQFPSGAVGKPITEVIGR
Variant	oxyanion analog dissociation constant [nM]
E410V	778
T68V	580
G35A	681
P227V	625
V137A	561
G14A	979
I74G	860
K38V	520
D260G	610
T278G	945
V12G	426

Study 2
Target: UDP-N-acetylglucosamine--peptide N-acetylglucosaminyltransferase 110 kDa subunit (OGT, Homo sapiens, UniProt O15294)
UniProt O15294, sequence (whole entry, looked up): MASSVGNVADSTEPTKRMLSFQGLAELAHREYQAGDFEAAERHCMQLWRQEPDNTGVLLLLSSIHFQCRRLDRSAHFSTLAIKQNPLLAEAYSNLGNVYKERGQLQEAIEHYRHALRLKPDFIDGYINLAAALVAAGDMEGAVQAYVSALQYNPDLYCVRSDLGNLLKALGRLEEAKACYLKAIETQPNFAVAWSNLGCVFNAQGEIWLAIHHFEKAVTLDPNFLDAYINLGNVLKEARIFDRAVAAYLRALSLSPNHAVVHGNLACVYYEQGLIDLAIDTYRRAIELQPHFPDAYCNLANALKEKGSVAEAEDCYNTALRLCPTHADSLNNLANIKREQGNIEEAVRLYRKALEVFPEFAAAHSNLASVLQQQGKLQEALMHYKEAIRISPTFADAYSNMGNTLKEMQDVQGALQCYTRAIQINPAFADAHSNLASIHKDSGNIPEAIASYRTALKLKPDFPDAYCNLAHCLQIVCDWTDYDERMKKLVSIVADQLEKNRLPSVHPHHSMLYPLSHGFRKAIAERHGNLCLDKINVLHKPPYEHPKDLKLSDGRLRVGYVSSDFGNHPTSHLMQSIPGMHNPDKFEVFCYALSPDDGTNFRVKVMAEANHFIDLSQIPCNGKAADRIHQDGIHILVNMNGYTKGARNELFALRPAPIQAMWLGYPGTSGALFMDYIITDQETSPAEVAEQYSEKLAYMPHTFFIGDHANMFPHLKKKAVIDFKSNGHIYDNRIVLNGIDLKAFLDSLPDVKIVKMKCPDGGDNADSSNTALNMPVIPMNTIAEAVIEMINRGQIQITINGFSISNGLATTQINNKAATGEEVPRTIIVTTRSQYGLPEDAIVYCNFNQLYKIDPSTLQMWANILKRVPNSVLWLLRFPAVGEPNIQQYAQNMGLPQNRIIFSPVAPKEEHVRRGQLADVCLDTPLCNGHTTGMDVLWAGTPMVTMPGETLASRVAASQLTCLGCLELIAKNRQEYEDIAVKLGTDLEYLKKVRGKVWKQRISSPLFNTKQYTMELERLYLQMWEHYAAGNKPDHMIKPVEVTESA
Observed: binding
Method: phage display NGS
Form: peptide
Relative to: input library
Molecule	minimum log2 enrichment ratio
FMHHQHVESPVHTYI	1.47
DAPWHKTHHMLPYSH	2.34
SQPQRSYTPFYQIQA	3.47
TQDYFHPKYNIIYQT	3.32
DINLWMMHDHVHHVK	3.27
ENVVWPHYHHHSTYI	1.97
HMKHMAIAMGGHFHT	1.94
QHEFQRILSHHHSYS	2.19
HVNYTTGHHTMSMH	2.51
QMNYIHWWIQKDHK	1.19
FPHHILQHHRQDDFH	2.31
NPHAHHIVSHTGFVH	2.11
HVFHHDVVRDYHNMH	2.52
TDRVGTYLPHYQIFF	3.48

Other studies, line by line
Substance	tested on	test	system	setting	how to read	endpoint	value
SEPTIN2 (Homo sapiens, UniProt Q15019)	ADAMTS1 (Homo sapiens, UniProt Q9UHI8)	cross-linking MS	cell fractions	added: DSSO	–	cross-linked residues	K325 to S27
KKAKARAFTISDS	human cyclin A2	peptide binding, competitive growth sequencing	peptide, Saccharomyces cerevisiae, cyclin A2-Cln2 fusion strain	concentration not given, mutational scanning library	relative to: unfused Cln2 strain, direction not given	binding score	0.295
COPB1 (Homo sapiens, UniProt P53618)	COPZ1 (Homo sapiens, UniProt P61923)	cross-linking MS	cell fractions	added: DSSO	–	cross-linked residues	S528 to K39
GALNT2 (Homo sapiens, UniProt Q10471)	TMED4 (Homo sapiens, UniProt Q7Z7H5)	cross-linking MS	cell fractions	added: DMTMM	–	cross-linked residues	K546 to D165
ASNS (Homo sapiens, UniProt P08243)	MMRN1 (Homo sapiens, UniProt Q13201)	cross-linking MS	cell fractions	added: DSSO	–	cross-linked residues	K244 to K340
